# Results from different studies.
# Parts stem from different laboratories: compare values within a part only. Changes are numbered by the printed parent chain.

# Block 1
# Target: CCNA1, cyclin fold, Cln2 fusion (human)
# Method: yeast growth competition, sequencing
# Sample: yeast
# Setting: weak parent motif
# Relative to: not given
# Direction: higher = stronger binding
# Parent: viral docking peptide; PTARRRLLHDLDT
Change,normalised enrichment score
PTARRRLAHDLDT [L8A],-0.0807
PTARRRLLHDLAT [D12A],0.0574
PTARRRLFHDLDT [L8F],1.52
PTARRRLLHALDT [D10A],0.131
PTARRRLLHDADT [L11A],0.338
PTARKRLLFDLDT [R5K H9F],1.48
ATARRRLLHDLDT [P1A],0.42
PTAARRLLHDLDT [R4A],-0.0426

# Block 2
# Target: Prothrombin, mature alpha-thrombin (F2, Homo sapiens, UniProt P00734)
# Method: aptamer microarray, sandwich
# Form: DNA with 2'F-ANA
# Sample: in vitro
# Concentration: 200 nM
# Setting: whole 15-mer aptamer, many near background
# With: Cy3 exosite-II aptamer, 400 nM
# Direction: higher = stronger binding
# Sequence: GGTTGGTGTGGTTGG
Modification,mean fluorescence intensity
2'F-ANA at 1 2 5 6 7 9 12 15,99 a.u.
2'F-ANA at 4 8 10 11 12 13 14 15,58 a.u.
2'F-ANA at 4 8 9 11 12 13 14,91.5 a.u.
2'F-ANA at 2 3 5 6 9 11 12 13 15,105 a.u.
2'F-ANA at 4 8 10 12,129 a.u.
2'F-ANA at 1 5 6 7 10 14,49.8 a.u.
2'F-ANA at 5 7 8 10 11 13 15,47.1 a.u.
2'F-ANA at 1 2 3 6 7 8 9 11 13 15,146 a.u.

# Block 3
# Target: Ras GTPase-activating protein-binding protein 1, RRM domain (G3BP1, Homo sapiens, UniProt Q13283)
# UniProt Q13283, sequence (whole entry, looked up): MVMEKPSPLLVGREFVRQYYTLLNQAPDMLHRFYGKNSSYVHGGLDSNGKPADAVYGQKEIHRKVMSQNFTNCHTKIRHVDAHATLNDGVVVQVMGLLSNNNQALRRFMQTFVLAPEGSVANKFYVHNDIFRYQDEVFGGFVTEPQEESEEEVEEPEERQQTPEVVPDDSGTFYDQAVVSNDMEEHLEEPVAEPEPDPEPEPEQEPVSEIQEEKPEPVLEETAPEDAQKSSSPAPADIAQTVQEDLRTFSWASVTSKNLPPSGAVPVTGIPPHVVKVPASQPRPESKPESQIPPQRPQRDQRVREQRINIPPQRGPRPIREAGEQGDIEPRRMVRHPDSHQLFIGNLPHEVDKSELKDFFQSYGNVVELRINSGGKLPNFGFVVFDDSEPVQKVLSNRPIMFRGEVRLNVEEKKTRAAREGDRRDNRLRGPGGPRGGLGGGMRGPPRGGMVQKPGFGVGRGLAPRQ
# Method: RNA Bind-n-Seq
# Form: RNA
# Sample: in vitro
# Concentration: 1 µM
# Setting: whole 134-nt RNA, ends assumed
# With: 150 mM KCl
# Relative to: input library
# Direction: higher = stronger binding
# All sequences stand within: GGGAGUUCUACAGUCCGACGAUC … UGGAAUUCUCGGGUGUCAAGG
Sequence,log2 enrichment
CAAGUCCUGUGCUACACAUCGUAUGUACCGAAUCGGGCCCGGGCCCGGGGCCCGGAAAGUAUUAUGUUACGCCGUUCGGAUCUGCACUUC,-0.842
CUCAAGUCCUGUGCUACACAUCGUAUGUACCGAAUCGGCCGGGCCGGCCGGGGAAAGUAUUAUGUUACGCCGUUCGGAUCUGCACUUCCA,-0.263
CAAGUCCUGUGCUACACAUCGUAUGUACCGAAUCGGGAAAGGGAGGGUUUUUGGGAAAGUAUUAUGUUACGCCGUUCGGAUCUGCACUUC,0.867
UUCCUCAAGUCCUGUGCUACACAUCGUAUGUACCGAAUCGGUGGGUGGUGGAAAGUAUUAUGUUACGCCGUUCGGAUCUGCACUUCCAGC,-0.133
UUCCAGGCUCAAGCACGGACAUCAGUGAGGACUGGGAGAAAGACUUUGACUUGGACAUGACUGAAGAGGAGGUGCAGAUGGCACUUUCCA,-0.0633
CCUGUGCUACACAUCGUAUGUACCGAAUCGGGGAAAAAAAGGGGUGGGGAAAAAAAGGGGAAAGUAUUAUGUUACGCCGUUCGGAUCUGC,0.42
UGUGCUACACAUCGUAUGUACCGAAUCGGGGAAAAAAAGGGGAAAAAGGGGUUUUUUUGGGGAAAGUAUUAUGUUACGCCGUUCGGAUCU,1.3
CUCAAGUCCUGUGCUACACAUCGUAUGUACCGAAUCGGAAGGGGAAGGAAGGGGAAAGUAUUAUGUUACGCCGUUCGGAUCUGCACUUCC,0.141

# Block 4
# Target: Hepatocyte nuclear factor 3-alpha (Foxa1, Mus musculus, UniProt P35582, residues 1-468, full length assumed)
# Method: EMSA with sequencing
# Form: double-stranded DNA, one strand shown
# Sample: in vitro
# Concentration: 10 and 20 nM
# Setting: whole designed probe, mean of two concentrations, ends assumed
# Relative to: negative control set to 0
# Direction: higher = stronger binding
# All sequences stand within: GTGAGCGGTGCCCATTGATGGGGAAC … TTTCACTGGGATCGTGGGGAC
# Construct (chain): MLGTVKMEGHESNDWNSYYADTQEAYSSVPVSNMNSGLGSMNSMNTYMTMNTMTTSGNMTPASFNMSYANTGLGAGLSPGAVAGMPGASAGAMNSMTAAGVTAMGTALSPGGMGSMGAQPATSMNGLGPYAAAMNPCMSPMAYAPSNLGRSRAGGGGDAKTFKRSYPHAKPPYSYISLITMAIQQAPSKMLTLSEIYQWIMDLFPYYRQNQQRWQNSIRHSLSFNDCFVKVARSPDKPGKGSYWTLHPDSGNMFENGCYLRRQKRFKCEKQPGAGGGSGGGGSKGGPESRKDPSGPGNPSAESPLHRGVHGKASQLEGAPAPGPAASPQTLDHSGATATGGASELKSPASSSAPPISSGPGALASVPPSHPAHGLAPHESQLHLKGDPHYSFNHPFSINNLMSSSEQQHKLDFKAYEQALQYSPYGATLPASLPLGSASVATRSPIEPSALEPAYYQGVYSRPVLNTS
Sequence,normalised bound fraction [ratio]
TCCTTTATCCCAACATGTTTATACAGACAAAACCAGGTTAAAATCGACACAAGGTCAACTTGAAATGGGGAGACGTCAAAGAGGAAGGTCAAAATAAACATGAAGTCTTGTGTACAAGCATCTGCAGAAGAGTTCAGCCTCACCACTTGGGTAATGCTGTTGGAATGTGGTCTGGGTTCACTGTATTTGAATG,0.257
ATCTTCCCCCTCTTCCTTGCCCCACCAGCTCACCTTCCCGGGTATATTGGAGATAGGAAATTAATATAAGCCGGCATTCGTTAACCCTCTTCTGGCGCAAACTGCCAAAGTAAACAGATGAATCATGGTCCTTTGGCGACGCCAGGCTCCGGGAGAGCAAAGCACCGTGTCAGGGCCATGATCCGGGGTGGCC,0.397
TAGCTACATCCTCTCTCCCCACATCAAGGAAGTGGCACTTCAATCCCCACCCTTTGAGTGTGAACTGCACTTATGACACCTGAGGGAGGAAAAGTAAATACGGTGGATCAACCTGGCAAACACTTTCTGACTCATACAGTCAAGGTTAATATCCACATGATAAGACATGTCGATCGCATACACCCCTGATATG,0.382
ACCAAAGTATCACAGGGAGAGATGGGCCTCTTGGGGCAGCAGCAGCAGCTGAAGCAGGCTGACTCACAGCTGCTTCTAATATGCTAGGCTTTGTGTAATCTGGCTTTATGACACAAGTGGGCTGACTACAGTGCAATTGGAGTGTGGCATCTGAGTCACTGTGAGGCTCTAGCTGGCTTCTTCCAGCCCTGGC,-0.0245
GAGCTGCTTGCAATTGAGTTGTATGTATGCTTCCACTTAATACGTCCTGCCGAGCCTGTAAGCCAACACTACGGGCCAGGAATCTGCCCTCTGTGTTTACCTACTCTCTTTTTATGTCTTATTCCCAGAATGACTGGGGACCAAAGGAATCCTTTGCAGGAGTTTTCTCCAGACAGACAGTTCCACATGCTAG,0.248

# Excerpt of the above (block 1):
Change,normalised enrichment score
PTARRRLLHDLAT [D12A],0.0574
PTARRRLFHDLDT [L8F],1.52
